Assay results of several laboratories.
Parts stem from different laboratories: compare values within a part only. Positions count from the first letter of the parent shown.

Series 1
Target: CCND2, cyclin fold, Cln2 fusion (human)
Technique: yeast growth competition, sequencing
Sample: yeast
Setting: weak parent motif
Baseline: not given
Direction: higher = stronger binding
Starting sequence: WEE1 docking peptide (human); HKTFRKLRLFDTP; partner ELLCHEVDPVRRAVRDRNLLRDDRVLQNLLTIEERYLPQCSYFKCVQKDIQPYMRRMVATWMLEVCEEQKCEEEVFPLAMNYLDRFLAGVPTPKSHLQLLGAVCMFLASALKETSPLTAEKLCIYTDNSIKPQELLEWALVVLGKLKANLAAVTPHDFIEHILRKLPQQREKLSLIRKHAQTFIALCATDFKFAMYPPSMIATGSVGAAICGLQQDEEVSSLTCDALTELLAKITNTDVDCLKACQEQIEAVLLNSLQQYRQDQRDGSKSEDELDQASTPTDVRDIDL
Change	normalised enrichment score
HKTFRYLRLFDTP [K6Y]	-0.137
HKTFRKTRLFDTP [L7T]	0.138
HKTFRKLRLFDTW [P13W]	-0.164
HKGFRKLRLFDTP [T3G]	0.867
HVTFRKLRLFDTP [K2V]	-0.28
HKNFRKLRLFDTP [T3N]	-0.46
HKEFRKLRLFDTP [T3E]	-0.482
HKTFHKLRLFDTP [R5H]	0.762

Series 2
Target: RNA binding protein fox-1 homolog 2, RRM domain, GST-SBP tag (RBFOX2, Homo sapiens, UniProt O43251-10, residues 100-194)
Technique: RNA Bind-n-Seq
Molecule type: RNA
Sample: in vitro
Concentration: 365 nM
Setting: natural RNA segment, single round, ends assumed
Baseline: no-protein control
Direction: higher = stronger binding
Shared flanks, not repeated: GGGAGUUCUACAGUCCGACGAUC … UGGAAUUCUCGGGUGCCAA
Residues (chain): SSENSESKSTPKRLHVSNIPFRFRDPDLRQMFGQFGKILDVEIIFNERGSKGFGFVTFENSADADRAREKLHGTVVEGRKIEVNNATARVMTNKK
Sequence	RBNS enrichment (R)
ACAAUAAGAAACAUACUCUCCAUAGUGCCAAGGCUACACAGAAACCCUGCCUCAAAAAAACAAGCAAAGCCGGGCGUGGUGGCGCACGCCUUUAAUCCCAGCACUUGGGA	0.408
CCAACUUCUAACCACAAUAGUGACUCUGUGCUUGUCUGUUUAGUUCUGUGUGUAAAUGAAAUGUGGAAAUGACCCUCCCUGCCCCAGCUGGCUGCCCUCCCCUUUCCUUU	0.881
UCUGCCCUCUCUUUAAUUUUGCCUCUUGAGGGGUAGCAGAUGUGUCAGUGCAUUUUAUUACUUGCUGAAACAUUCAGGCUUACAUUUCUUAUUAGUUUAGUAUUUUAAAA	0.63
AGGAAAGGACAUGGGUAGCAAUUCUACCCAGAGCCUUCUCCUGCCUACAUUCCCUGGCCUGGCUCUCCUGUAGCUCUCCUGGGGUUCUGGGAGUUCCCUGAACAUCUGUG	0.314
GCAGUUAAAUGGACCUAGAUUUUGUUUUGCACUAAAGUUUCUGUGACUUAAUAAAGUUCUGUUAACCAACAGAUCUGGCCUUGUGUCUCUUUGAUACCUCAGCCAGAAGA	0.313
GUGGCUCUGAGGCCUAGGCAACGAGCGACAGGGCUGCCAGUUGCCCCUGGGUUCCUUUGUGCUGCUGUGUGCCUCCUCUCCUGCCGCCCUUUGUCCUCCGCUAAGAGACC	0.325
UUAAACCACGACCCAGGUCCUUGGUUCACAUGGAAUAAUAAAGAUGUGUUUUUAGAUGGCACAUUGGUCCAUUUGUACACACCUGUCAUCGGGAUCUUAGUACAUGGACU	0.259
GUUGCCGAGCCGAGAGCAUUGGAUCCUCCCCGACUGUGGCUAGUUGUCUGUCCGGUGGCUGGGAGGGGGUGUGGUGGGAAAAAGUCGGAAUCUCUGCAAUCUGUGUCAUG	0.76
UGGGGCGGCACGUUUUACUCUUUAUCUCGCUUUCGGAGGUGCUUUCGCAGGAGCAUUAACCUCCUGGAGACGGAGCUGGGAGGACUCGGUGCAUCCCUGUGUUGAUAGCU	0.772

Series 3
Target: Histone acetyltransferase KAT6A, both winged helices, GST fusion (KAT6A, Homo sapiens, UniProt Q92794, residues 1-181)
Technique: protein binding microarray
Molecule type: double-stranded DNA, one strand shown
Sample: in vitro
Concentration: not given
Setting: 8-mer, flanks averaged, mean of 2 arrays, mostly near background
Baseline: not given
Direction: higher = stronger binding
Target sequence (chain): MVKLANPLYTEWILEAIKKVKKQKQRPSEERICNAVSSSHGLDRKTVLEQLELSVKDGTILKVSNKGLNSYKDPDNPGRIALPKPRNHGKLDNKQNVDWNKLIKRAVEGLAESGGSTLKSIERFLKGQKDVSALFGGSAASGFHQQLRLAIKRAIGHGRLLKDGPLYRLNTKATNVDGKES
Sequence	E-score
ACACGACA	-0.136
CGGCGCCA	0.305
AGACTCAT	-0.0924
GGCCCATA	8.5e-05
GGCAAGGA	-0.0795
CCCGCTCG	0.285
AGAACAAT	-0.0992
ACCAAAAC	-0.113
GTAGAGAC	-0.121
ATTATGGA	-0.0853
ATTGGGCG	-0.057
AGTTTACC	-0.0806

Further values, each from its own experiment
Molecule	target	assay	test system	conditions	scale	measurement	value
PhoQ, residues 284 288 289 292 302 303 SIHMAM	PhoP, residues 12 14 15 18 19 TPLRH (Escherichia coli, UniProt P23836)	Sort-seq, item: YFP reporter	E. coli	PhoQ-PhoP variant library, together with: 10 µM Mg2+	baseline: high Mg2+ state, higher = stronger signaling	fold induction	0.904

For quick reference, copied from above (series 1):
Change	normalised enrichment score
HKTFRKTRLFDTP [L7T]	0.138
HVTFRKLRLFDTP [K2V]	-0.28
